{"data": "Measurements gathered from unrelated publications", "note": "Compare with care: the assays were run in different laboratories. Numbers after ± are the reported error."}
{"SMILES": "Cc1ccc(OCC(=O)N(Cc2cccs2)c2ccn[nH]2)cc1", "system": "pooled human liver microsomes", "conditions": "10 µM, 20 min", "how to read": "reference: time 0", "endpoint": "remaining compound", "result": "33.9%"}
{"SMILES": "CCCCC/C=C\\CCCO[Si](CCCCN(CC)CC)(OCCC/C=C\\CCCCC)OCCC/C=C\\CCCCC", "conditions": "pH 5.5, formulated", "endpoint": "zeta potential", "result": "1.89 mV"}
{"SMILES": "Nc1ccc2cc(/C=C/C(=O)c3ccc(O)cc3)ccc2c1", "system": "toluene", "conditions": "20 °C", "endpoint": "excitation maximum", "result": "402 nm"}
{"SMILES": "[123I]c1ccc2nc(-c3ccc(-n4ccnn4)nc3)cn2c1", "system": "male Wistar rat, brain", "conditions": "intravenous, 4 MBq, 6 h", "endpoint": "tracer uptake", "result": "0.006 %ID/g"}
{"SMILES": "C=C(NC(=O)c1csc(-c2nc3c(cc2O)-c2nc(cs2)C(=O)NC(C(C)O)C(=O)NC(=C(C)OC)c2nc(cs2)C(=O)NC2c4nc(cs4)C(=O)NC(COC(=O)c4c5c6c(cccc6n4O)COC(=O)C(OC4CC(C)(O)C(N(C)C)C(C)O4)C2OC5)c2nc-3cs2)n1)C(N)=O (stereo not drawn)", "system": "male cynomolgus monkey, plasma", "conditions": "intravenous, 9 mg/kg, single dose, infusion", "endpoint": "AUC(0-inf)", "result": "47600 ng·h/mL"}
{"SMILES": "COCC1CN(C2CCN(c3cc(OC)c(Nc4ncc(Br)c(Nc5ccc6c(c5P(C)(C)=O)OCCO6)n4)cc3C)CC2)C1", "test": "first-in-human trial", "system": "human", "conditions": "oral, 10 mg once daily", "how to read": "treatment-related leading to permanent discontinuation", "endpoint": "adverse events", "result": "0%"}
{"SMILES": "CCn1nc(Cl)c2c1-c1cnc(N)c(c1)O[C@H](C)c1cc(F)ccc1-c1nn(C)cc1C2", "system": "Balb/c nude mouse, female, plasma", "conditions": "0.2 mg/kg twice daily for 5 days, 12 h", "endpoint": "free plasma concentration", "result": "1.23 nM"}
{"SMILES": "O=C(Nc1cnccc1-c1ccc([18F])cc1)c1ccnc(NC(=O)C2CC2)c1", "system": "FVB/NJ mice (both sexes), urine", "conditions": "intravenous, dose not given, 120 min, added: tariquidar 15 mg/kg i.v. pre-dose", "endpoint": "SUV", "result": 15.3}
{"SMILES": "COCCN(C)CC(=O)NC(Cc1ccc(-c2ccccc2)cc1)B(O)O (stereo not drawn)", "system": "Caco-2", "endpoint": "Papp B→A", "result": "22 ×10⁻⁶ cm/s"}
{"SMILES": "C=CC[C@@H]1/C=C(\\C)C[C@H](C)C[C@H](OC)[C@H]2O[C@@](O)(C(=O)C(=O)N3CCCC[C@H]3C(=O)O[C@H](/C(C)=C/[C@@H]3CC[C@@H](O)[C@H](OC)C3)[C@H](C)[C@@H](O)CC1=O)[C@H](C)C[C@@H]2OC", "system": "kidney transplant recipients, CYP3A5 *3/*3, whole blood", "conditions": "oral, dose not given, late phase, limited sampling", "endpoint": "dose-normalized AUC(0-12h)", "result": "165 ± 82 ng·h/mL"}
{"SMILES": "COc1cccc(OC)c1-c1cc(C(=O)NC2(C(=O)O)C3CC4CC(C3)CC2C4)nn1-c1ccc(C(=O)N(C)CCOCCOCCN(C)C(=O)[C@H](CCCCNC(=O)[C@H](CC(C)C)NC(=O)C2OC2C(=O)O)NC(=O)CN2CCN(CC(=O)[O-])CCN(CC(=O)[O-])CCN(CC(=O)[O-])CC2)cc1C(C)C.[177Lu+3] (mixture of isomers)", "system": "mouse HT-29 xenograft", "conditions": "168 h, biodistribution", "how to read": "reference: tumour over small intestine", "endpoint": "tumour-to-small intestine ratio", "result": 18.1}
{"SMILES": "C=CC(=O)Nc1cc(Nc2nccc(-c3cn(C)c4ccccc34)n2)c(OC)cc1N(C)CCNC", "test": "storage stability", "system": "human dried blood spot", "conditions": "2 h, -80 °C, LQC level", "endpoint": "recovery", "result": "104%"}
{"note": "Some of these lines once more:"}
{"SMILES": "COCCN(C)CC(=O)NC(Cc1ccc(-c2ccccc2)cc1)B(O)O (stereo not drawn)", "system": "Caco-2", "endpoint": "Papp B→A", "result": "22 ×10⁻⁶ cm/s"}
